Measured values from different studies.
Protocols differ between the studies behind these lines. “And” joins repeats or separate records; there may be more than shown. Numbers after ± are the reported error.

| Compound | tested on | test | system | conditions | scale | measurement | result |
| --- | --- | --- | --- | --- | --- | --- | --- |
| C#CCCCCOP(=O)(O)Oc1c2c(c(OP(=O)(O)OCCCCC#C)c3c1C1CC3c3cc4c(cc31)C1CC4c3ccccc31)C1CC2c2cc3c(cc21)C1CC3c2ccccc21 | SARS-CoV-2 | spike pseudoparticle entry | Caco-2 |  |  | IC50 | 16.2 µM |
| CC(C)CCC1=C(O)C(=O)c2ccccc2C1=O | SARS-CoV-2 |  | Calu-3 and HepG2 |  | baseline: HepG2 CC50 over antiviral EC50 | selectivity index | 35 ± 7 |
| Cc1oc2nc1C(=O)N[C@](C)(C(=O)O)c1nc(c(C)o1)C(=O)N[C@](C)(C(=O)O)c1nc(c(C)o1)C(=O)N[C@]2(C)C(=O)O | SARS-CoV-2 | viral adsorption | Vero E6, NRC-03-nhCoV | 5 µM |  | inhibition | 16% |
| C#CCCOP(=O)(O)Oc1c2c(c(OP(=O)(O)OCCC#C)c3c1C1CC3c3cc4c(cc31)C1CC4c3ccccc31)C1CC2c2cc3c(cc21)C1CC3c2ccccc21 | SARS-CoV-2 | spike pseudoparticle entry | Caco-2 |  |  | IC50 | 11 µM |
| C[C@@H]1O[C@@H](n2c3ccccc3c3c4c(c5c6ccccc6[nH]c5c32)CNC4=O)C[C@@H](N)[C@H]1O | SARS-CoV-2 | viral replication | mNeonGreen reporter |  |  | EC50 | 0.282 µM |
| CC(C)(C)NC(=O)[C@@H](c1cccnc1)N(C(=O)c1ccco1)c1ccc(C(C)(C)C)cc1 | SARS-CoV-2 | viral replication | Vero | 1 µM |  | viral reduction | 0.11% |
| O=C(CCN(Cc1ccco1)C(=O)c1csc(Nc2ccccc2)n1)NCc1cccc(C(F)(F)F)c1 | SARS-CoV-2 |  | A549-ACE2 |  | baseline: CC50 over EC50 | selectivity index | > 3 |
| Cc1ccc(N2CCN(C)CC2)cc1C(=O)NC1(c2ccc3c4c(cccc24)CC3)CC1 | SARS-CoV-2 | viral replication | Vero C1008, XBB.1 | 0.005716 µM |  | inhibition | 0% |
| Clc1cc(Cl)cc(CCCN2CCCC3=CC4CC(CN5CCCCC45)C32)c1 (centres unmarked) | SARS-CoV-2 | viral replication |  | concentration not given |  | antiviral activity | inactive |
| CCCCCOP(=O)(O)Oc1c2c(c(OP(=O)(O)OCCCCC)c3c1C1CC3c3cc4c(cc31)C1CC4c3ccccc31)C1CC2c2cc3c(cc21)C1CC3c2ccccc21 | SARS-CoV-2 | spike pseudoparticle entry | Caco-2 |  |  | IC50 | 6.4 µM |
| Cc1ccc(N2CC3CC(C2)N3)cc1C(=O)NC1(c2ccc3c4c(cccc24)C(=O)N3C)CC1 | SARS-CoV-2 | viral replication | Vero C1008, Omicron BA.5 | 0.1543 µM |  | inhibition | 25% and 10% |
| Oc1cc(O)c2c(c1)OC(c1ccc(O)c(O)c1)C(OC1(c3ccc(O)c(O)c3)Oc3cc(O)cc(O)c3C(O)C1O)C2 (centres unmarked) | SARS-CoV-2 |  | Vero C1008 |  | baseline: CC50 over EC50 | selectivity index | > 40 |
| Cc1oc2nc1C(=O)N[C@](C)(C(=O)NCCc1ccccc1)c1nc(c(C)o1)C(=O)N[C@](C)(C(=O)NCCc1ccccc1)c1nc(c(C)o1)C(=O)N[C@]2(C)C(=O)NCCc1ccccc1 | SARS-CoV-2 | viral replication | Vero E6, NRC-03-nhCoV | 2.5 µM |  | inhibition | 0% |
| Cc1ccc(N2CC(N3CCC(C)(O)CC3)C2)cc1C(=O)NC1(c2ccc3c4c(cccc24)CC3)CC1 | SARS-CoV-2 | viral replication | Vero C1008, XBB.1 | 0.005716 µM |  | inhibition | 0% |
| O=c1nc(NO)ccn1[C@@H]1O[C@H](CO)[C@@H](O)[C@H]1O | SARS-CoV-2 | viral replication | Vero | concentration not given, 48 h, single nontoxic dose |  | virus yield reduction | > 90% |
| O=C(CCCCCCCCCCc1ccc(O)c(O)c1)c1c(O)cccc1O | SARS-CoV-2 |  | Vero E6/TMPRSS2, WK-521 ancestral |  | baseline: CC50 over EC50 | selectivity index | 2.3 |
| CN=c1nc(-c2ccccc2)n(-c2ccccc2)s1 | SARS-CoV-2 |  | Huh-7 |  | baseline: CC50 over EC50 | selectivity index | inactive |
| Cc1ccc(N2CCN(C)CC2)cc1C(=O)NC1(c2cc(-c3cnn(C)c3)nc3ccccc23)CC1 | SARS-CoV-2 | viral replication | recombinant Y268H mutant |  | baseline: wild type | EC50 fold change | 6 to 13 fold |
| CCCC/C=C/C(=O)N[C@@H](Cc1csc2ccccc12)C(=O)N[C@H]1COC(=O)[C@@H]2C[C@@H](C)CN2C(=O)[C@H](C)NC(=O)[C@@H]2CCCCN2C(=O)[C@@H]2CCCN2C1=O | SARS-CoV-2 | HiBiT luminescence | HeLa replicon | concentration not given, unit not given | baseline: DMSO | replicon activity | 0.565 and 0.489 and 0.702 and 0.491 and 0.465 and 0.439 |
| Cc1oc2nc1C(=O)N[C@](C)(C(=O)OC(C)C)c1nc(c(C)o1)C(=O)N[C@](C)(C(=O)OC(C)C)c1nc(c(C)o1)C(=O)N[C@]2(C)C(=O)OC(C)C | SARS-CoV-2 | viral adsorption | Vero E6, NRC-03-nhCoV | 10 µM |  | inhibition | 12% |
| CC(C)C(=O)OC[C@H]1O[C@@](C#N)(n2ccc(N)nc2=O)[C@H](O)[C@@H]1O | SARS-CoV-2 | viral replication, qRT-PCR of viral RNA | Vero, Washington |  |  | EC90 | 4.8 ± 0.1 µM |
| Cc1ccc(N2CC3CC(C2)N3C)cc1C(=O)NC1(c2ccc3c4c(cccc24)C(=O)N3C)CC1 | SARS-CoV-2 | viral replication | Vero C1008, Omicron BA.5 | 0.01715 µM, 72 h |  | inhibition | 0% |
| O=CC(O)C(O)C(O)C(O)COc1cc(O)c2c(=O)c(OCC(O)C(O)C(O)C(O)C=O)c(-c3ccc(O)c(O)c3)oc2c1 (centres unmarked) | SARS-CoV-2 |  | intracellular | concentration not given |  | SARS-CoV-2 nucleoprotein level | decreased |
| CC[C@@H](C)[C@@H](NC(=O)[C@@H](CCC(=O)O)NC(=O)[C@@H](CCC(=O)O)NC(=O)[C@@H](CCC(N)=O)NC(=O)C(C)(C)NC(=O)[C@@H](CCCCN)NC(=O)[C@H](NC(=O)[C@@H](Cc1ccccc1)NC(=O)C(C)(C)NC(=O)[C@@H](CC(=O)O)NC(=O)[C@@H](CCCCN)NC(=O)[C@@H](Cc1ccccc1)NC(=O)[C@@H](CC(N)=O)NC(=O)[C@@H](Cc1c[nH]cn1)NC(=O)[C@@H](CCC(=O)O)NC(=O)C(C)(C)NC(=O)[C@@H](CCC(=O)O)NC(=O)[C@@H](CC(=O)O)NC(=O)[C@@H](CC(C)C)NC(=O)[C@@H](Cc1ccccc1)NC(=O)[C@@H](Cc1ccc(O)cc1)NC(=O)[C@@H](CCC(N)=O)NC(=O)[C@H](N)CO)[C@H](C)O)C(=O)NCCOCCOCC(=O)NCCOCCOCC(=O)NCCOCCOCC(=O)N[C@@H](CS)C(N)=O | SARS-CoV-2 | luciferase reporter | ancestral Wuhan spike, VSV pseudovirus | concentration not given |  | pseudovirus entry | decreased |
| Oc1ccc(Br)cc1-c1nc2cc(C(F)(F)F)ccc2s1 | SARS-CoV-2 | RT-qPCR, refers to: Orf1a | Huh-7 | 30 µM, 48 h, unit not given | baseline: DMSO | genomic RNA level | 0.221 and 0.176 |
| Cc1ccc(N2CC(N3CCC(C)(O)CC3)C2)cc1C(=O)NC1(c2ccc3c4c(cccc24)C(=O)N3C)CC1 | SARS-CoV-2 | viral replication | Vero C1008, XBB.1 | 12.5 µM |  | inhibition | 100% |
| CC(C)CC(C(=O)N1CC2(CC1C#N)C(=O)Nc1ccccc12)N(C)C(=O)c1cc2c(F)cc(F)c(F)c2[nH]1 (centres unmarked) | SARS-CoV-2 | viral replication | Vero E6 | 0.0002 µM |  | inhibition | 0% and 5.33% and 1.5% and 3.22% |
| COc1cccc2[nH]c(C(=O)N[C@@H](CC(C)C)C(=O)N[C@@H](C[C@@H]3CCNC3=O)C(=O)c3nc4ccccc4s3)cc12 | SARS-CoV-2 | viral replication, RT-qPCR | VeroE6, WK-521 ancestral |  |  | EC75 | 4.3 ± 0.58 µM |
| CCCCCCCCCCCCCCCC(=O)N[C@@H](CCC(=O)NCCOCCOCCC(=O)NCCOCCOCCC(=O)NCCCC[C@H](NC(=O)[C@H](CC(=O)O)NC(=O)[C@H](CC(C)C)NC(=O)[C@H](Cc1ccc(O)cc1)NC(=O)[C@H](CCCCN)NC(=O)[C@H](CO)NC(=O)[C@H](Cc1ccc(O)cc1)NC(=O)[C@H](CC(=O)O)NC(=O)[C@H](CO)NC(=O)[C@@H](NC(=O)[C@H](Cc1ccccc1)NC(=O)[C@@H](NC(=O)CNC(=O)[C@H](CCC(N)=O)NC(=O)[C@@H](CO)NC(=O)[C@@H](N)Cc1c[nH]cn1)[C@@H](C)O)[C@@H](C)O)C(=O)N[C@@H](CCCNC(=N)N)C(=O)N[C@@H](CCCNC(=N)N)C(=O)N[C@@H](C)C(=O)N[C@@H](CCC(N)=O)C(=O)N[C@@H](CC(=O)O)C(=O)N[C@@H](Cc1ccccc1)C(=O)N[C@H](C(=O)N[C@@H](CCC(N)=O)C(=O)N[C@@H](Cc1c[nH]c2ccccc12)C(=O)N[C@@H](CC(C)C)C(=O)N[C@@H](CC(C)C)C(=O)N[C@@H](CC(N)=O)C(=O)N[C@H](C(=O)NCC(=O)NCC(=O)N1CCC[C@H]1C(=O)N[C@@H](CO)C(=O)N[C@@H](CO)C(=O)NCC(=O)N[C@@H](C)C(=O)N1CCC[C@H]1C(=O)N1CCC[C@H]1C(=O)N1CCC[C@H]1C(=O)N[C@@H](CO)C(N)=O)[C@@H](C)O)C(C)C)C(=O)O |  |  | rhesus monkey, both sexes, plasma | subcutaneous, 20 µg/kg, multiple doses, day 1 |  | Cmax | 9.82 ± 4.72 ng/mL |

A few entries again:
| Compound | tested on | test | system | conditions | scale | measurement | result |
| --- | --- | --- | --- | --- | --- | --- | --- |
| Cc1ccc(N2CC3CC(C2)N3C)cc1C(=O)NC1(c2ccc3c4c(cccc24)C(=O)N3C)CC1 | SARS-CoV-2 | viral replication | Vero C1008, Omicron BA.5 | 0.01715 µM, 72 h |  | inhibition | 0% |
| O=CC(O)C(O)C(O)C(O)COc1cc(O)c2c(=O)c(OCC(O)C(O)C(O)C(O)C=O)c(-c3ccc(O)c(O)c3)oc2c1 (centres unmarked) | SARS-CoV-2 |  | intracellular | concentration not given |  | SARS-CoV-2 nucleoprotein level | decreased |
| CC[C@@H](C)[C@@H](NC(=O)[C@@H](CCC(=O)O)NC(=O)[C@@H](CCC(=O)O)NC(=O)[C@@H](CCC(N)=O)NC(=O)C(C)(C)NC(=O)[C@@H](CCCCN)NC(=O)[C@H](NC(=O)[C@@H](Cc1ccccc1)NC(=O)C(C)(C)NC(=O)[C@@H](CC(=O)O)NC(=O)[C@@H](CCCCN)NC(=O)[C@@H](Cc1ccccc1)NC(=O)[C@@H](CC(N)=O)NC(=O)[C@@H](Cc1c[nH]cn1)NC(=O)[C@@H](CCC(=O)O)NC(=O)C(C)(C)NC(=O)[C@@H](CCC(=O)O)NC(=O)[C@@H](CC(=O)O)NC(=O)[C@@H](CC(C)C)NC(=O)[C@@H](Cc1ccccc1)NC(=O)[C@@H](Cc1ccc(O)cc1)NC(=O)[C@@H](CCC(N)=O)NC(=O)[C@H](N)CO)[C@H](C)O)C(=O)NCCOCCOCC(=O)NCCOCCOCC(=O)NCCOCCOCC(=O)N[C@@H](CS)C(N)=O | SARS-CoV-2 | luciferase reporter | ancestral Wuhan spike, VSV pseudovirus | concentration not given |  | pseudovirus entry | decreased |
